Assay results collected from several papers.
A part holds a random share of what one study measured.

Study 1
Target: RNA binding protein fox-1 homolog 2, RRM domain, GST-SBP tag (RBFOX2, Homo sapiens, UniProt O43251-10, residues 100-194)
Method: RNA Bind-n-Seq
Molecule type: RNA
Sample: in vitro
Tested at: 365 nM
Setting: natural RNA segment, single round, ends assumed
Relative to: no-protein control
Direction: higher = stronger binding
Construct (chain): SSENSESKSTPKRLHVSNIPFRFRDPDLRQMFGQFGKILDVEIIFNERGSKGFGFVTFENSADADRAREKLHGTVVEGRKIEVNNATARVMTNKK
Under “RBNS enrichment (R)”, `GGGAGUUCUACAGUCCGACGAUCAACCAUUUCCAUGCUCAGCGUGGUUCGCUGUGUGCCACGUGUGGUCUCCCAGUGACCGGCCGCUGUGUGUCCGCUCUGGGCCGACGCUUCCAUCCAGACCACUUCACCUGUGGAAUUCUCGGGUGCCAA` is recorded as 0.291.
`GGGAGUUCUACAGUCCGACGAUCGCUCUAACCCCAAAUUCUAGUAUCCAAAAGUAUUUUUAUUUGUAUAAUGCUAUCUGAAAAAUGUGUUUAUAUUAUAUUUUCAGAGCUGCAAUUCUUAUUCGCCAUUUCAAUGGAAUUCUCGGGUGCCAA`: “RBNS enrichment (R)” 0.816.
`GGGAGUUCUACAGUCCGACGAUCUUUAGAUUUGAUCUAGGUUGCCUCAAUAGCCUUGGGUGUUUUAUUUAAAUGAAGAGGGGAAUAAACAAGUUGACAGACUCAGGAAUGUAAACAGACAAGGAAGAUAUCCUUGGAAUUCUCGGGUGCCAA` — result for “RBNS enrichment (R)”: 0.659.
`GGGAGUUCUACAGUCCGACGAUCGAUAUGGGUUGCUGUCUUCUGGCCUCCAGCUGCAUGGAGGCCGGCCCAGGGUCUAGGGUGUGCACUGGGCAAGGGCAGGGCGGCAGGUGUCAGGCCGGCUUGGACAAUGAUGGAAUUCUCGGGUGCCAA`: “RBNS enrichment (R)” 0.644.
`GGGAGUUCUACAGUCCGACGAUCAUUUGAUGACAAAUGUUUGUAUCCUUACAAAAGACCUUGUAUGUUUACGAAUUCUGCCAUGCAGCGAUUCUUUAAGGAUAGUUUGUUUUAUUUAUCUUGUACAUAUGUAUUGGAAUUCUCGGGUGCCAA` — result for “RBNS enrichment (R)”: 0.741.
`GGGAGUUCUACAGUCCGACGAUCUUCUGGCCUAUUGUCUGCUUCGCUGUGUAGGUAGCCUGACUUGACAGAGGUUUCUCCUGGUUUUCCUUGUUUCUACCCAGAGAAUUUCCUACUCCCCUUUCCCUCCAAAUUGGAAUUCUCGGGUGCCAA` — result for “RBNS enrichment (R)”: 1.45.
For `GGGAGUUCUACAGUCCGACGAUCCCUGGUUUAAAACCAACAAUGAUGCCUAGUGAGUAUGUGUCCACAGGCCAUAACAGGGUAGAAGAGAGACAUCGUGCAACCCAAUGAGUAGUGAAGGGACUGUGUUGCUUUGGAAUUCUCGGGUGCCAA`, “RBNS enrichment (R)” read 2.12.
Under “RBNS enrichment (R)”, `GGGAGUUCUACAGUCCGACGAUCUUUCAAAAUAAAACUACCCAUCCUCAUUCAACACUUCCAAUGGGAAAAUUCAGAGAUGAGAUCUUAACACAGCUUCACUCAGGAAGAGACUCACAUGACAGAGCAACUCUUGGAAUUCUCGGGUGCCAA` is recorded as 0.76.
Under “RBNS enrichment (R)”, `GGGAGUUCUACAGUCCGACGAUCAGUUUUUGAGACUAGUUUACCUCUUCACAUUUAUGCUCACAACCCUCUUGUUAGAAAAGUCUGUGUUUAUAUACAGGCUGUAAGUUUGUGAUUGAUAAAAAGAAGAUGAGUGGAAUUCUCGGGUGCCAA` is recorded as 0.38.
For `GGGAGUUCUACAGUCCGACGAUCACUUGUUCUAGUGAGUGGUGGGACUGUACAUUUUUGAAUAGACCUCAAAAAUACUUCAUUCUGCUGCUGUUCAGUUGGCUUUUUAAACCUGUCUGCAGUAGGACACUGAAUGGAAUUCUCGGGUGCCAA`, “RBNS enrichment (R)” read 0.233.
`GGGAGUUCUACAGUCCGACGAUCUUGAUCACUAAGCAAAGCUGCUAGUGGGAUUCUAUAUUUCGUGUCAUCUUUUUUAUUAUAAUUUAUUGCAAAUUUUUUUCUGAAUAAAUAUAUGUUGUGUGAAAAAGCAAUGGAAUUCUCGGGUGCCAA`: “RBNS enrichment (R)” 0.524.
`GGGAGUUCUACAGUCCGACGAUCAAAAAACCAAAGUGAAACACUAAAAAUUCCCUAUAGAUAUAUUCCAGGAAAUAUUUUAAUUGGGCUGAUUUUAAUUAGGCUGUAUCAUUGAUGAUUACUGGAAUCGAUUUUGGAAUUCUCGGGUGCCAA` — result for “RBNS enrichment (R)”: 0.609.

Study 2
Target: Interferon regulatory factor 3, full length, phosphomimetic (IRF3, Homo sapiens, UniProt Q14653, residues 1-427, S386D/S396D/S398D/S402D/T404D/S405D)
Method: protein-binding microarray
Molecule type: double-stranded DNA, one strand shown
Sample: in vitro
Tested at: 2540 nM top
Setting: 60-bp whole probe
With: salmon DNA 0.4 mg/ml
Relative to: random background probes
Direction: higher = stronger binding
All sequences stand within: GCCTAGCAC … GTCTTGATTCGCTTGACGCTGCTG
Construct (chain): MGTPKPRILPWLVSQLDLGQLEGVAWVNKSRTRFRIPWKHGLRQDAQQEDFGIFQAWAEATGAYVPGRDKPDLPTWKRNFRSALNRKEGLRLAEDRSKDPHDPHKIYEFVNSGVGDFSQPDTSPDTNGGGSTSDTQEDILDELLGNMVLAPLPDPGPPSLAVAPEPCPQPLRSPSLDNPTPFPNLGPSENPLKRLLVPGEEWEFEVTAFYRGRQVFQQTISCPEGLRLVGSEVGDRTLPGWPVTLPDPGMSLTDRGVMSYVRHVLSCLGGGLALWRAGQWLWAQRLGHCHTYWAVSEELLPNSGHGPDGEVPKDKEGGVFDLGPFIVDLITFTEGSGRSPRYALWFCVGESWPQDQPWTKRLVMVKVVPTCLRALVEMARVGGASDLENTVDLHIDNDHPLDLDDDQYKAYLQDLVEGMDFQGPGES
For `TTAGGACTGGGACTCGGTTAGTGCTAG`, “fitted relative affinity” read -0.919 z-score.
`TTAGATTTCAGTCTCGATAAGTGCTAG`: “fitted relative affinity” 2.52 z-score.
Under “fitted relative affinity”, `TTAGAACTGAGTTTCGATAAGTGCTAG` is recorded as 1.92 z-score.
For `TCACGTTTACATTTTCCACTGTGCTAG`, “fitted relative affinity” read 1.62 z-score.
Under “fitted relative affinity”, `TTAGATTTTGGGTTTCGATTAGTGCTA` is recorded as 1.9 z-score.
Under “fitted relative affinity”, `GACGATTTCAGTATCGACACGTGCTAG` is recorded as 2.45 z-score.
For `TTAGGTTTCCTTCTCCGTTAGTGCTAG`, “fitted relative affinity” read 9.53 z-score.
For `GACGGTATCGACACTGGGCACGTGCTA`, “fitted relative affinity” read 0.52 z-score.
`TTAGGTTTCAACTTTCGGTTAGTGCTA`: “fitted relative affinity” 2.64 z-score.
Under “fitted relative affinity”, `GACGGTTTCGGTATGGGGACGTGCTAG` is recorded as 6.92 z-score.
Under “fitted relative affinity”, `TTAGGTTTCAGTTCCGGTTAGTGCTAG` is recorded as 6.3 z-score.
`CCATCTCTCAAAAGTCACCCTGTGCTA`: “fitted relative affinity” 2.23 z-score.
`TTAGGTTCCATTTTCCTTTAGTGCTAG` — result for “fitted relative affinity”: 7.02 z-score.
`GACGATATCGGGTTTCGCGACGTGCTA`: “fitted relative affinity” 0.587 z-score.
For `TTAGGTCTCCGTCTCGGTTAGTGCTAG`, “fitted relative affinity” read 2.22 z-score.
`GGCGGACTGCTTTTCCTGACGTGCTAG` — result for “fitted relative affinity”: -0.424 z-score.
`CTGGTCTCCGGTGTTTCCTAGTGCTAG`: “fitted relative affinity” 0.952 z-score.
For `GTCGAACTGGGGACTGGAGACGTGCTA`, “fitted relative affinity” read -0.341 z-score.
`TCATGTGTCTTAAATAGGACTGTGCTA` — result for “fitted relative affinity”: -0.0219 z-score.

Study 3
Target: Prothrombin, mature alpha-thrombin (F2, Homo sapiens, UniProt P00734)
Method: aptamer microarray, sandwich
Molecule type: DNA with 2'F-ANA
Sample: in vitro
Tested at: 200 nM
Setting: whole 15-mer aptamer, many near background
With: Cy3 exosite-II aptamer, 400 nM
Direction: higher = stronger binding
Strand: GGTTGGTGTGGTTGG
Under “mean fluorescence intensity”, `2'F-ANA at 3 4 5 7 10 11 12 13 14 15` is recorded as 49.3 a.u.
For `2'F-ANA at 1 3 4 5 7 10 11 12 13 14 15`, “mean fluorescence intensity” read 47.1 a.u.
For `2'F-ANA at 2 8 10 11 12`, “mean fluorescence intensity” read 173 a.u.
`2'F-ANA at 5 6 7 9 10 12 15` — result for “mean fluorescence intensity”: 49.9 a.u.
`2'F-ANA at 1 2 7 10 14` — result for “mean fluorescence intensity”: 47.7 a.u.
`2'F-ANA at 3 4 6 7 8 9 10 11 12 13 14 15`: “mean fluorescence intensity” 191 a.u.
For `2'F-ANA at 1 2 3 5 6 9 11 12 13 14`, “mean fluorescence intensity” read 52.3 a.u.
Under “mean fluorescence intensity”, `2'F-ANA at 3 9 10 15` is recorded as 613 a.u.
`2'F-ANA at 8 12 13 15` — result for “mean fluorescence intensity”: 677 a.u.
`2'F-ANA at 2 4 7 10 12 13 15`: “mean fluorescence intensity” 104 a.u.
`2'F-ANA at 1 4 6 7 12`: “mean fluorescence intensity” 259 a.u.
For `2'F-ANA at 2 4 7 8 9 10 15`, “mean fluorescence intensity” read 91.9 a.u.
`2'F-ANA at 2 3 4 7 9 11 13`: “mean fluorescence intensity” 460 a.u.
`2'F-ANA at 1 2 5 6 15` — result for “mean fluorescence intensity”: 59.7 a.u.
`2'F-ANA at 1 2 3 8 11 13 15` — result for “mean fluorescence intensity”: 228 a.u.
For `2'F-ANA at 1 3 6 7 9 10 11 14`, “mean fluorescence intensity” read 59.9 a.u.
`2'F-ANA at 4 6 7 9 11 14 15`: “mean fluorescence intensity” 69.3 a.u.
For `2'F-ANA at 4 6 7 8 9 10 11 13`, “mean fluorescence intensity” read 108 a.u.
`2'F-ANA at 2 4 6 7 8 10 12 13 15`: “mean fluorescence intensity” 107 a.u.
For `2'F-ANA at 2 3 7 9 10 12 13 14`, “mean fluorescence intensity” read 349 a.u.
Under “mean fluorescence intensity”, `2'F-ANA at 2 4 7 8 10 12 14 15` is recorded as 68.3 a.u.
`2'F-ANA at 2 4 6 7 8 14 15` — result for “mean fluorescence intensity”: 133 a.u.
`2'F-ANA at 1 2 5 8 10 11` — result for “mean fluorescence intensity”: 48 a.u.
`2'F-ANA at 1 3 8 9 10 11 13` — result for “mean fluorescence intensity”: 81.4 a.u.
Under “mean fluorescence intensity”, `2'F-ANA at 1 2 3 4 8 9 10 11` is recorded as 57.5 a.u.

Study 4
Target: Histone acetyltransferase KAT6A, both winged helices, GST fusion (KAT6A, Homo sapiens, UniProt Q92794, residues 1-181)
Method: protein binding microarray
Molecule type: double-stranded DNA, one strand shown
Sample: in vitro
Tested at: not given
Setting: 8-mer, flanks averaged, mean of 2 arrays, mostly near background
Relative to: not given
Direction: higher = stronger binding
Construct (chain): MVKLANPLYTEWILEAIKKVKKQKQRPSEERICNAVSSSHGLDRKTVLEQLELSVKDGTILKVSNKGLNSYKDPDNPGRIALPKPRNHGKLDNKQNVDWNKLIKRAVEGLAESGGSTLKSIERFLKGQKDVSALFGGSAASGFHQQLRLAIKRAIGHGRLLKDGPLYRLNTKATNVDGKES
The E-score of `AGAGCACT` is reported as -0.207.
For `AACTGCGA`, the E-score was 0.0774.
`CTCGTCTC` gave an E-score of -0.0121.
For `CGGCCATA`, the E-score was 0.0658.
`CAGGTATG` has an E-score of -0.127.
`CTGTACTC` has an E-score of -0.198.
The E-score of `CGCAACTA` is reported as 0.0581.
`CGATTCCA` has an E-score of -0.057.
`TACCGCCA` gave an E-score of 0.11.
For `CATGACGA`, the E-score was -0.0119.
With `TTCTGAAA` the E-score was -0.0986.
`AAATTGCG` gave an E-score of 0.227.
The E-score of `GGGAGTTA` is reported as -0.111.
For `AAGTCGAT`, the E-score was -0.0716.
The E-score of `CCGTAGTA` is reported as 0.14.
`AATTGTTG` gave an E-score of -0.0607.
The E-score of `CAAGGCCG` is reported as 0.0987.
The E-score of `ACAGAGGC` is reported as -0.0947.
With `CTATGCAA` the E-score was -0.085.
`ATTTTCGG` gave an E-score of 0.0207.
`AAACCACC` has an E-score of -0.0953.
For `GTGGTTTA`, the E-score was 0.0667.
With `CGTTATGC` the E-score was 0.0319.
`GGGCCCGA` has an E-score of 0.0575.
`AACCTCCC` has an E-score of -0.011.
